Experimental data pooled from the literature.
Values joined by “and” are separate records of one study, mostly repeats; a detail may differ. Numbers after ± are the reported error.

Cc1nc(-c2ccc(OCC(C)C)c(C#N)c2)sc1C(=O)O  decrease in serum uric acid (mouse, acute hyperuricaemia model; 1 mg/kg): 93.1%
CC(C)NCC(O)c1ccc(O)c(O)c1 (centres unmarked)  sarcomere length (ventricular cardiomyocytes, C57BL/6 mouse; dose not given, 0.856 s): 1.5 µm
C[C@H](NC(=O)c1c(C(F)F)nn(C)c1Oc1cccc(C(F)(F)F)c1)c1ccc(C(=O)O)cc1  progressive disease (irRECIST; human, advanced tumours; 750 mg; best overall response): 42.9%
CN(C)C(=O)c1cc2cnc(Nc3ccc(N4CCNCC4)cn3)nc2n1C1CCCC1  GSEA enrichment score (RNA sequencing, refers to: HALLMARK_INTERFERON_ALPHA_RESPONSE; MB002 tumour; concentration not given; relative to: vehicle, direction not given): 0.231
CC(C)[C@H](C(=O)Nc1ccc(C(=O)NO)cc1)c1ccccc1  tumour volume (volumetric MRI; human, right vagal schwannoma; dose not given, day 359): 7.8 cm3
OC(CCN1CCCCC1)(c1ccccc1)C1CC2C=CC1C2 (centres unmarked)  power, theta EEG, Fz-Cz (resting-state EEG; healthy elderly humans; oral, 4 mg, eyes open, LS mean): 2.8 µV²
N#Cc1ccc2c(c1)[C@H]1CCCN(C(=O)c3ccc4[nH]cnc4c3)[C@H]1C2  total urinary corticosteroids (human, urine; 20 mg, 336 h, day 14 over day -1; relative to: placebo and baseline): 125 % change
O=C(COc1ccc(Cl)cc1)NC12CC(c3nnc([C@H]4C[C@@H](OC(F)(F)F)C4)o3)(C1)C2  mRNA level change (refers to: CHAC1; PBMC ex vivo stimulated, human ALS patients; 100 mg, D21 predose; relative to: baseline): -63.4%
CC[C@@H]1[C@H](F)C(=O)N[C@@H]1COc1nccc2cc(C(N)=O)c(OC)cc12  inhibition (ATP-site probe binding, ActivX profiling, refers to: TAO1, TAO3; THP-1 cell lysate; 0.01 mM, Lys2 site): 6.6%
Cn1cc(Nc2nccc(-c3ccc4c(c3)CN(C3COC3)CC[C@H]4NC(=O)c3cn(C(C)(C)C)nn3)n2)cn1  pathway activation z-score (refers to: Toll-like receptor signaling; splenic B cells, mice; 30 mg/kg, IgD-activated in vivo; relative to: vehicle, direction not given): 2.71
CN(C)C(=O)Oc1cccc([N+](C)(C)C)c1  train-of-four ratio (neuromuscular block reversal; rat; dose not given, 18 (unit not given), added: cisatracurium; relative to: T1 twitch): 98
CCN(Cc1nc2c(N)nc3cc(-c4cc[nH]n4)ccc3c2[nH]1)C(C)=O  patients with increased cells (immunohistochemistry, refers to: PD-L1+ immune cells; patients with advanced solid tumours, non-injected tumour lesions; dose not given, monotherapy): 83%
CCN1CCN(Cc2ccc(Nc3ncc(F)c(-c4cc(F)c5nc6n(c5c4)[C@H](C)CCC6)n3)nc2)CC1  partial response (human advanced solid tumours; 500 mg, phase Ia monotherapy RECIST 1.1): 16.7%
COc1cc(N2CCC(N3CCN(C)CC3)CC2)ccc1Nc1ncc(Cl)c(Nc2ccccc2P(C)(C)=O)n1  tumour volume (nude mice, NCI-H3122 xenograft; intraperitoneal, 10 mg/kg every other day, day 3): 102 mm3 and 43.9 mm3 and 39.9 mm3 and 91.9 mm3 and 41.9 mm3
COc1cc2cc(-c3ccc(CC(=O)Nc4cc(C(C)(C)C(F)(F)F)no4)cn3)cnc2cc1OC  partial response as best response (human RET-altered advanced solid tumours; dose not given, phase I total, RECIST 1.1): 29%
C[C@]12CC[C@@H]3c4ccc(O)cc4C[C@@H](CCCCCCCCC[S+]([O-])CCCC(F)(F)C(F)(F)F)[C@H]3[C@@H]1CC[C@@H]2O (some centres unmarked)  tumour volume (female nude mouse LCC2 xenograft; 2.0 mg/kg, day 3, tamoxifen-resistant): 37.8 mm3 and 42.5 mm3 and 17.4 mm3 and 27.7 mm3 and 32.7 mm3 and 34 mm3
COc1ccc(F)cc1C(=O)NCc1ccc(-c2nn([C@@H](C)C(F)(F)F)c(N)c2C(N)=O)cc1  tumour growth inhibition (mouse OCI-Ly10 xenograft; 10 mg/kg twice daily, 840 h, 35 days after withdrawal): 83%
CC(C)c1nc(N(C)S(C)(=O)=O)nc(-c2ccc(F)cc2)c1/C=C/[C@@H](O)C[C@@H](O)CC(=O)O  non-HDL cholesterol (human, HIV-infected, plasma; median after treatment): 2.6 mmol/L
NC(=O)c1cnc2[nH]ccc2c1N[C@@H]1[C@@H]2CC3C[C@H]1C[C@@](O)(C3)C2  change from baseline (flow cytometry, refers to: CD8+ naive T cells; Japanese healthy subjects, peripheral blood; oral, 10 mg twice daily, day 7): -0.7%
CSCCNc1nc(SCCC(F)(F)F)nc2c1ncn2[C@@H]1O[C@H](COP(=O)(O)OP(=O)(O)C(Cl)(Cl)P(=O)(O)O)[C@@H](O)[C@H]1O  patients with high residual reactivity (platelet aggregation, light transmission aggregometry; human patients, platelet-rich plasma; dose not given, 2 h, aggregation above 46%, added: ADP 5 µM): 55%
N#Cc1ccc2c(c1)[C@H]1CCCN(C(=O)c3ccc4[nH]cnc4c3)[C@H]1C2  change from baseline (refers to: Triglycerides; human; 20 mg once daily, day 28, adjusted mean; relative to: placebo): 11.5 mg/dL
N#Cc1ccc2c(-c3ccncc3)c(-c3ccc(F)cc3)nn2c1  log2 fold change (kinase binding, competitor, MIB/MS competition, refers to: KSP1; Candida albicans cell lysate; 1 µM; relative to: DMSO): -0.125
Cc1cc(-c2nnc(N)nc2-c2ccc(F)cc2)cc(Cl)n1  GSVA score change (NanoString, refers to: Macrophages.Prat.IO signature; human mCRPC, peripheral blood; dose not given, 2 or 4 weeks; relative to: baseline, direction not given): -0.138
CC1(C)CCC(CN2CCN(c3ccc(C(=O)NS(=O)(=O)c4ccc(NCC5CCOCC5)c([N+](=O)[O-])c4)c(Oc4cnc5[nH]ccc5c4)c3)CC2)=C(c2ccc(Cl)cc2)C1  EC50 (cell killing; canine blood CD3+ T cells, dog 31; 24 h): 72 nM
CN(C(=O)n1cnc(-c2ccc[n+]([O-])c2)c1)C1CCCCC1  AUC(0-t) (refers to: PEA; human, plasma; 0.25 mg single dose): 158 ng·h/mL
Oc1nc2nonc2cc1Nc1c(F)c(F)c(F)c(F)c1F  body fat loss (obese C57BL/6J mice, Western diet 19 weeks; oral gavage, dose not given, once daily): ~20%
O=C(O)CNC(=O)Cc1ccccc1  sarcomere length (ventricular cardiomyocytes, C57BL/6 mouse; dose not given, 0.08 s): 1.72 µm
C1=C/COCc2cc(ccc2OCCN2CCCC2)Nc2nccc(n2)-c2cccc(c2)COC/1  reticulocytes (BALB/c mice rhEPO-induced polycythemia; 120 mg/kg): 10.9% and 14.2% and 13.1% and 13.3% and 11.3% and 14.1%
Cc1cc(/C=C2\Oc3cc(OCC4CC4)ccc3C2=O)cc(C)c1OC(C)(C)C(=O)O  serum TC, TG, AST and ALT (db/db mice on MCD diet; oral, 30 mg/kg daily, 45 days; relative to: untreated model): decreased
CCc1c(C)nc(-c2ccc(Cl)s2)nc1Nc1ccc(CC(=O)O)cc1  serum ALT (C57BL/6J mice, MCD diet; intraperitoneal, 0.3 mg/kg daily, MCD diet 6 weeks, dosed last two; relative to: vehicle): decreased
Cc1noc(C)c1-c1cc(C(O)(c2ccccn2)c2ccccn2)c2nc(C3CC3)[nH]c2c1  maximum induction (refers to: HEXIM1 expression; human, peripheral blood; 3 mg, day 8, 1604 study): 68%
COc1cc(Nc2ncc3c(n2)-c2ccc(Cl)cc2C(c2c(F)cccc2OC)=NC3)ccc1C(=O)O  relative tumour volume T/C (mouse, KT-10 Wilms tumour xenograft; oral, 5.2 mg/kg, day 7; relative to: vehicle): 2
C[C@H]1C[C@H]2CSC(N)=N[C@@]2(c2nc(NC(=O)c3ccc(OC(F)F)cn3)cs2)CO1  percent change from baseline (refers to: Aβ1-40; healthy adults, plasma; 275 mg once daily, day 14; relative to: placebo): -87.4%
COc1ccc(-n2nc(C(N)=O)c3c2C(=O)N(c2ccc(N4CCCCC4=O)cc2)CC3)cc1  thrombin generation lag time (calibrated automated thrombogram; healthy dog, plasma; oral, 0.5 mg/kg every 12 h; relative to: baseline): increased
OCC(O)CO  FGF21 level (ELISA; Mus musculus female wild type, serum; drinking water, 5% w/v, 2 days): 464 pg/mL and 2470 pg/mL and 400 pg/mL and 404 pg/mL and 195 pg/mL and 205 pg/mL
O=C(OC(C(F)(F)F)C(F)(F)F)N1CCN(Cc2cccc(Oc3ccccc3)c2)CC1  tracer distribution volume (PET; rhesus monkey, frontal cortex; intravenous, 0.1 mg/kg, pretreatment blocking, added: [18F]T-401): 7.2 mL/cm3
CC(=O)NCC(=O)NCC(=O)N[C@H](C(=O)N[C@@H](Cc1ccc(O)cc1)C(=O)N[C@@H](CO)C(=O)N[C@H]1CSSC[C@@H](C(=O)N[C@@H](CCCNC(=N)N)C(=O)N2CCC[C@H]2C(=O)N[C@@H](CCC(N)=O)C(=O)N[C@@H](CCCNC(=N)N)C(=O)NCC(=O)NCCC(=O)N[C@@H](CCCCNC(=O)CN(CC(=O)NCCCC[C@H](NC(=O)CCNC(=O)CNC(=O)[C@H](CCCNC(=N)N)NC(=O)[C@H](CCC(N)=O)NC(=O)[C@@H]2CCCN2C(=O)[C@H](CCCNC(=N)N)NC(=O)[C@@H]2CSSC[C@H](NC(=O)[C@H](CO)NC(=O)[C@H](Cc3ccc(O)cc3)NC(=O)[C@@H](NC(=O)CNC(=O)CNC(C)=O)[C@@H](C)O)C(=O)N[C@@H](Cc3c[nH]cn3)C(=O)N[C@@H](Cc3ccccc3)C(=O)NCC(=O)N[C@@H](C)C(=O)N[C@@H](CC(C)C)C(=O)N[C@@H]([C@@H](C)O)C(=O)N[C@@H](Cc3c[nH]c4ccccc34)C(=O)N[C@@H](C(C)C)C(=O)N2)C(N)=O)C(=O)CCN)C(N)=O)NC(=O)[C@H](C(C)C)NC(=O)[C@H](Cc2c[nH]c3ccccc23)NC(=O)[C@H]([C@@H](C)O)NC(=O)[C@H](CC(C)C)NC(=O)[C@H](C)NC(=O)CNC(=O)[C@H](Cc2ccccc2)NC(=O)[C@H](Cc2c[nH]cn2)NC1=O)[C@@H](C)O  reticulocytes (healthy BALB/c mice; subcutaneous, 0.16 mg/kg, 8 d, single dose): 5.8%
Cc1n[nH]c2ccc(-c3cc(OC[C@@H](N)Cc4ccccc4)cnc3-c3ccoc3)cc12  log2 fold change (kinase binding, competitor, MIB/MS competition, refers to: CTK1; Candida albicans cell lysate; 1 µM; relative to: DMSO): -0.159
C[C@H](Oc1ccc(Br)cc1-c1ccon1)C(=O)O  difference from placebo (first response latency; human, tibialis anterior muscle; 800 mg, 15 Hz, single ascending dose): -0.281%
COc1ccc(-c2cncc(N[C@@H](C)c3cccc(NC(=O)c4cncc(C)c4)c3)n2)cc1OC  fold change (refers to: rno-miR-382-5p; rat SU5416/hypoxia model, lung; dose not given; relative to: SU5416/hypoxia vehicle): 2.12
C[C@H]1O[C@@H](O[C@H]2CC[C@@]3(C)[C@@H](CC[C@]4(C)[C@@H]3C=C[C@]35OC[C@@]6(CCC(C)(C)C[C@H]63)[C@@H](O)C[C@]54C)[C@]2(C)CO)[C@H](O)[C@@H](O[C@@H]2O[C@H](CO)[C@@H](O)[C@H](O)[C@H]2O)[C@H]1O  body weight change (chronic-plus-binge ethanol mice; oral, 15 mg/kg/day for 7 d, 168 h): -0.3 g and -0.1 g and -0.8 g and -0.4 g
O=C1Nc2cc3[nH]nc(-c4ccncc4)c3cc2CN1Cc1ccccc1  partial response, best response (RECIST v1.1; human, relapsed or refractory advanced solid tumours; intravenous, 9.6 mg/kg, pooled schedules): 0%
N#Cc1ccn2c(-c3ccncc3)c(-c3ccc(F)cc3)nc2c1  log2 fold change (kinase binding, competitor, MIB/MS competition, refers to: RCK2; Candida albicans cell lysate; 1 µM; relative to: DMSO): -0.0948
C[C@@H]1COCCN1c1cc([C@]2(O)C[C@H]3CC[C@@H](C2)O3)c2cnn(-c3cc[nH]n3)c2n1  tumour growth inhibition (mice, Granta-519 xenograft; 30 mg/kg once daily for 2 days, day 14): 49.6 ± 3.3%

For quick reference, copied from above:
C[C@H](NC(=O)c1c(C(F)F)nn(C)c1Oc1cccc(C(F)(F)F)c1)c1ccc(C(=O)O)cc1  progressive disease (irRECIST; human, advanced tumours; 750 mg; best overall response): 42.9%
Cn1cc(Nc2nccc(-c3ccc4c(c3)CN(C3COC3)CC[C@H]4NC(=O)c3cn(C(C)(C)C)nn3)n2)cn1  pathway activation z-score (refers to: Toll-like receptor signaling; splenic B cells, mice; 30 mg/kg, IgD-activated in vivo; relative to: vehicle, direction not given): 2.71
CC(C)NCC(O)c1ccc(O)c(O)c1 (centres unmarked)  sarcomere length (ventricular cardiomyocytes, C57BL/6 mouse; dose not given, 0.856 s): 1.5 µm
O=C1Nc2cc3[nH]nc(-c4ccncc4)c3cc2CN1Cc1ccccc1  partial response, best response (RECIST v1.1; human, relapsed or refractory advanced solid tumours; intravenous, 9.6 mg/kg, pooled schedules): 0%
CN(C)C(=O)Oc1cccc([N+](C)(C)C)c1  train-of-four ratio (neuromuscular block reversal; rat; dose not given, 18 (unit not given), added: cisatracurium; relative to: T1 twitch): 98
COc1cc(N2CCC(N3CCN(C)CC3)CC2)ccc1Nc1ncc(Cl)c(Nc2ccccc2P(C)(C)=O)n1  tumour volume (nude mice, NCI-H3122 xenograft; intraperitoneal, 10 mg/kg every other day, day 3): 102 mm3 and 43.9 mm3 and 39.9 mm3 and 91.9 mm3 and 41.9 mm3
